Experimental data of several laboratories.
Protocols differ between the studies behind these lines. Several values in a cell are separate wells, animals, samples, runs or records. ± marks the error that the study gave.

`Cn1c(-c2ccc(C(N)=O)cc2F)nnc1C(C)(C)Oc1c(F)cc(Cl)cc1F` gave an AUC(0-inf) mean of 2150 ng·h/mL (young Japanese subjects, plasma; oral, 20 mg single dose, day 1).
`acyl ghrelin (human)` gave a tissue/serum ratio of 8.09 µL/g (wild-type mice, pons and medulla; intravenous, dose not given, 10 min, vascular space corrected).
`Cn1c(=O)[nH]c2[nH]c(=O)n(C)c2c1=O`: “total plasma concentration ratio” 7 (human hemodialysis patients, plasma; pre-treatment; relative to: hemodialysis over normal subjects).
`O=C(CCc1ccc(F)cc1)c1ccccc1OCC(O)CN1CCN(C(c2ccccc2)c2ccccc2)CC1` (stereo not drawn) gave a scaled CLint of 33.7 mL/min/kg (metabolic stability; female mouse, liver microsomes; 20 µM, pH 7.4).
`CNc1nc(Nc2ccc(-n3cnc(C)n3)c(OC)c2)nc2c1CC[C@H]2c1ccc(F)cc1` gave a Tmax of 4 h (human, plasma; oral, 30 mg, single dose, healthy volunteers).
For `C[C@@H](c1ncncc1F)[C@](O)(Cn1cncn1)c1ccc(F)cc1F`, “median trough concentration” read 2.1 µg/mL (LC-MS/MS; Chinese patients, hematological disorders, plasma; 200 mg every 12 h, steady state).
The Papp A→B of `O=C1C[C@@H](c2ccc(O)cc2)Oc2cc(O)cc(O)c21` is reported as 12.6 ×10⁻⁶ cm/s (mass spectrometry; Caco-2; 40 µM, 6 h).
The thermodynamic solubility of `CC(=O)[C@H]1CC[C@H]2[C@@H]3CCC4=CC(=O)CC[C@]4(C)[C@H]3CC[C@]12C` is reported as 17.1 ± 0.71 mg/g (shake-flask; PEG400; 37 °C).
The Papp A→B of `O=S1(=O)OC(c2ccc(O)cc2)(c2ccc(O)cc2)c2ccccc21` is reported as 6.1 ×10⁻⁶ cm/s (Caco-2; 5 µg/mL, 1 h).
`CC(C)=CCc1c(O)c(CC=C(C)C)c2oc3c(O)ccc(O)c3c(=O)c2c1O`: “free tumour concentration” 320 ± 120 ng/g (Balb/c nu/nu mice, HT-29 xenograft, tumour tissue; oral, 901 mg/kg xanthones in diet, 4 weeks after implantation).
The peptide cleavage of `GMMYRS` is reported as > 80% and > 90% (substrate, gel electrophoresis; peptide, mouse, PyMT tumour, PyMT tumour tissue extract; 5 µM, 16 h, 37 °C, 2% extract, 1 mM ZnCl2).
`CC[C@H](C)[C@H](NC(=O)[C@H](Cc1ccccc1)NC(=O)[C@H](CCC(=O)O)NC(=O)[C@H](CCCCNC(=O)COCCOCCNC(=O)COCCOCCNC(=O)CC[C@H](NC(=O)CCCCCCCCCCCCCCCCC(=O)O)C(=O)O)NC(=O)[C@H](C)NC(=O)[C@H](C)NC(=O)[C@H](CCC(N)=O)NC(=O)CNC(=O)[C@H](CCC(=O)O)NC(=O)[C@H](CC(C)C)NC(=O)[C@H](Cc1ccc(O)cc1)NC(=O)[C@H](CO)NC(=O)[C@H](CO)NC(=O)[C@@H](NC(=O)[C@H](CC(=O)O)NC(=O)[C@H](CO)NC(=O)[C@@H](NC(=O)[C@H](Cc1ccccc1)NC(=O)[C@@H](NC(=O)CNC(=O)[C@H](CCC(=O)O)NC(=O)C(C)(C)NC(=O)[C@@H](N)Cc1cnc[nH]1)[C@@H](C)O)[C@@H](C)O)C(C)C)C(=O)N[C@@H](C)C(=O)N[C@@H](Cc1c[nH]c2ccccc12)C(=O)N[C@@H](CC(C)C)C(=O)N[C@H](C(=O)N[C@@H](CCCNC(=N)N)C(=O)NCC(=O)N[C@@H](CCCNC(=N)N)C(=O)NCC(=O)O)C(C)C` — result for “average steady-state concentration”: 47.4 nmol/L (healthy Chinese subjects, plasma; subcutaneous, 1.0 mg once weekly).
`CS/C(S)=N/CCCC[S+](C)[O-]` (racemic) — result for “mRNA fold change”: 0.774 (RT-PCR, measured: Cyp2c7; rat, liver; oral gavage, 200 mg/kg, dosed for four days; relative to: vehicle).
`COc1c(OCCCN2CCOCC2)ccc2c1N=C(NC(=O)c1cnc(N)nc1)N1CCN=C21` has an AUC(0-25 h) of 1250 ng·h/mL (human patients, plasma; intravenous, 0.6 mg/kg 3 weeks on 1 week off, cycle 1 day 15, added: refametinib 30 mg twice daily oral).
With `Cc1cc(Nc2cc3ncccc3c(N[C@@H]3C[C@H]4CC[C@@H](C3)N4CCC#N)n2)n[nH]1` the Cmax was 278 ng/mL (Sprague-Dawley rat, female, plasma; oral, 1000 mg/kg/day, last day of 13 weeks).
The clearance of `COc1cccc(OCCCN)c1-c1cc(Nc2cnc(C#N)cn2)n[nH]1` is reported as 1280 mL/min (human, plasma; intravenous, 105 mg/m², patients, infusion).
`CS(=O)(=O)OC[C@H](O)[C@@H]1CO1`: “concentration in red blood cells” 3.7 µM and 3.4 µM (Wistar rat, female, red blood cells; intraperitoneal, 500 mg/kg treosulfan, 4 h).
`COC(=O)C[C@](O)(CCCC(C)(C)O)C(=O)O[C@@H]1C(OC)=C[C@]23CCCN2CCc2cc4c(cc2[C@H]13)OCO4`: tissue concentration “not detected” (CD1 mouse, heart; oral, 1 mg/kg, 24 h, below quantification limit 1.00 ng/mL).
For `CS(=O)(=O)Nc1ccc(C(=O)O[C@@H](Cc2c(Cl)c[n+]([O-])cc2Cl)c2ccc(OC(F)F)c(OCC3CC3)c2)cc1OCC1CC1`, the tmax was 2 h (human, plasma; inhaled, 1600 µg once daily, day 1, single-dose dry powder inhaler).
`CC(C)(Oc1ccc(C(=O)c2ccc(Cl)cc2)cc1)C(=O)O` has a thermodynamic solubility of 54.8 ± 2.69 mg/g (shake-flask; PEG400; 37 °C).
For `N[C@@H](CC(=O)N1CCn2c(nnc2C(F)(F)F)C1)Cc1cc(F)c(F)cc1F`, the AUC(0-2 h) was 452 ± 196 ng·h/mL (healthy Korean subjects, plasma; oral, 100 mg single dose, ABCB1 G2677T/A GG).
`O=C(NC1CCNCC1)c1n[nH]cc1NC(=O)c1c(Cl)cccc1Cl` has a t_half of 600 min (human patients, plasma; intravenous, cycle 1 day 1, after onalespib).
`Cc1cc(Nc2ncc(Cl)c(Nc3ccccc3S(=O)(=O)C(C)C)n2)c(OC(C)C)cc1C1CCNCC1` — result for “AUC(tau) at steady state”: 23.7 µM·h (measured: total drug; patients, plasma; oral, 750 or 450 mg/day, arithmetic mean).
`O=C(CCC(C(=O)[O-])N1CCN(C(CCC(=O)NCC(O)CO)C(=O)[O-])Cc2cccc(n2)CN(C(CCC(=O)NCC(O)CO)C(=O)[O-])CC1)NCC(O)CO.[Gd+3]` (stereo not drawn) has a Vdss of 0.239 ± 0.008 L/kg (Beagle dog, plasma; intravenous bolus, 0.2 mmol Gd/kg).
For `CNCc1ccc(-c2[nH]c3cc(F)cc4c3c2CCNC4=O)cc1`, the AUC(0-t) was 9430 ng·h/mL (human patients, plasma; oral, 360 mg twice daily, day 15, steady state, arithmetic mean).
The concentration of `Oc1c(Br)cc(Cl)c2cccnc12` is reported as 15.6 ± 4.2 ng/g (male Sprague-Dawley rats, heart; intravenous, 5 mg/kg, 2 h).
`CCOc1nc2cccc(C(=O)OC(C)OC(=O)OC3CCCCC3)c2n1Cc1ccc(-c2ccccc2-c2nnn[nH]2)cc1` (stereo not drawn) gave a thermodynamic solubility of 25.9 ± 0.86 mg/g (shake-flask; PEG400; 37 °C).
Under body weight, `Cn1cc(C2=C(c3coc4ccc(F)cc34)C(=O)NC2=O)c2cc3c(cc21)OCO3` is recorded as “no effect” (nude mouse SK-OV-3 xenograft; i.p., 40 mg/kg every other day, 21 days, added: LiCl 340 mg/kg; relative to: vehicle).
Under “time above MIC”, `CN[C@H](CC(C)C)C(=O)N[C@H]1C(=O)N[C@@H](CC(N)=O)C(=O)N[C@H]2C(=O)N[C@H]3C(=O)N[C@H](C(=O)N[C@H](C(=O)O)c4cc(O)cc(O)c4-c4cc3ccc4O)[C@H](O)c3ccc(c(Cl)c3)Oc3cc2cc(c3O[C@@H]2O[C@H](CO)[C@@H](O)[C@H](O)[C@H]2O[C@H]2C[C@](C)(N)[C@H](O)[C@H](C)O2)Oc2ccc(cc2Cl)[C@H]1O` is recorded as 81 min (pig, vertebral cancellous bone; intravenous infusion, 1000 mg, infusion 100 min, added: MIC 8 µg/mL).
For `CCCCC/C=C/C(=O)CCc1ccc(O)c(OC)c1`, the recovery was 0.6% (rat, small intestine site 4 contents; oral, dose not given, 2 h, β-glucuronidase treated; relative to: ingested amount).
With `CC(C)NCC(O)COc1cccc2ccccc12` (stereo not drawn) the QTc change was 2.7 ± 1.3% (male Hartley guinea pig, anaesthetized; intravenous infusion, 1 mg/kg, 10 min infusion; relative to: baseline).
`C[C@@H](O)[C@H]1C(=O)N2C(C(=O)O)=C(S[C@@H]3CN[C@H](C(=O)N(C)C)C3)[C@H](C)[C@H]12` — result for “time above MIC”: 311 min (microdialysis; pig (Danish Landrace), subcutaneous adipose tissue; iv infusion, 1000 mg over 10 min, MIC 0.25 µg/mL, added: vancomycin co-administered).
For `CCN(CC)C(=S)SSC(=S)N(CC)CC`, the thermodynamic solubility was 69.6 ± 3.26 mg/g (shake-flask; PEG400; 37 °C).
For `CCCC[C@@H]1NC(=O)[C@@H](NC(=O)[C@H](CCC(=O)O)NC(=O)CNC(=O)CN2CCN(CC(=O)O)CCN(CC(=O)O)CCN(CC(=O)O)CC2)CCCCNC(=O)C[C@@H](C(N)=O)NC(=O)[C@H](C(C)C)NC(=O)[C@@H]2CCCN2C(=O)[C@H](CCCNC(=N)N)NC(=O)CNC(=O)[C@H](Cc2c[nH]c3ccccc23)NC(=O)[C@H](CCCNC(=N)N)NC(=O)[C@@H](Cc2ccccc2)NC(=O)[C@H](Cc2c[nH]cn2)NC(=O)[C@H](CCC(=O)O)NC1=O` [indium-111 labelled], the tissue uptake was 0.06 ± 0.04 %ID/g (normal C57 mice, spleen; intravenous, 0.037 MBq, 2 h).
With `CCC(C)n1ncn(-c2ccc(N3CCN(c4ccc(OCC5COC(Cn6cncn6)(c6ccc(Cl)cc6Cl)O5)cc4)CC3)cc2)c1=O` (stereo not drawn) the thermodynamic solubility was 0.09 ± 0.01 mg/g (shake-flask; soybean oil; 37 °C).
With `Nc1ncn([C@H]2C[C@H](O)[C@@H](CO)O2)c(=O)n1` the AUC(0-180) was 2.75 µM·h (male CD-1 mice, plasma; oral, 167 mg/kg THU + 0.4 mg/kg, day 1).

For quick reference, copied from above:
With `Nc1ncn([C@H]2C[C@H](O)[C@@H](CO)O2)c(=O)n1` the AUC(0-180) was 2.75 µM·h (male CD-1 mice, plasma; oral, 167 mg/kg THU + 0.4 mg/kg, day 1).
`CC[C@H](C)[C@H](NC(=O)[C@H](Cc1ccccc1)NC(=O)[C@H](CCC(=O)O)NC(=O)[C@H](CCCCNC(=O)COCCOCCNC(=O)COCCOCCNC(=O)CC[C@H](NC(=O)CCCCCCCCCCCCCCCCC(=O)O)C(=O)O)NC(=O)[C@H](C)NC(=O)[C@H](C)NC(=O)[C@H](CCC(N)=O)NC(=O)CNC(=O)[C@H](CCC(=O)O)NC(=O)[C@H](CC(C)C)NC(=O)[C@H](Cc1ccc(O)cc1)NC(=O)[C@H](CO)NC(=O)[C@H](CO)NC(=O)[C@@H](NC(=O)[C@H](CC(=O)O)NC(=O)[C@H](CO)NC(=O)[C@@H](NC(=O)[C@H](Cc1ccccc1)NC(=O)[C@@H](NC(=O)CNC(=O)[C@H](CCC(=O)O)NC(=O)C(C)(C)NC(=O)[C@@H](N)Cc1cnc[nH]1)[C@@H](C)O)[C@@H](C)O)C(C)C)C(=O)N[C@@H](C)C(=O)N[C@@H](Cc1c[nH]c2ccccc12)C(=O)N[C@@H](CC(C)C)C(=O)N[C@H](C(=O)N[C@@H](CCCNC(=N)N)C(=O)NCC(=O)N[C@@H](CCCNC(=N)N)C(=O)NCC(=O)O)C(C)C` — result for “average steady-state concentration”: 47.4 nmol/L (healthy Chinese subjects, plasma; subcutaneous, 1.0 mg once weekly).
For `CNCc1ccc(-c2[nH]c3cc(F)cc4c3c2CCNC4=O)cc1`, the AUC(0-t) was 9430 ng·h/mL (human patients, plasma; oral, 360 mg twice daily, day 15, steady state, arithmetic mean).
For `CCCCC/C=C/C(=O)CCc1ccc(O)c(OC)c1`, the recovery was 0.6% (rat, small intestine site 4 contents; oral, dose not given, 2 h, β-glucuronidase treated; relative to: ingested amount).
